Assay results gathered from unrelated publications.
Protocols differ between the studies behind these lines. ± gives the spread as reported. Bridges are numbered along the chain shown (N, C = ends). Where no end group is shown, it is not given here.

| Substance | cell line | assay | setting | IC50 |
| --- | --- | --- | --- | --- |
| O=S(=O)([O-])[O-].[Cu+2] | Caco-2 monolayers | viability, MTT | 96 h, repeated daily dosing | 439 µM |
| CO[C@H]1/C=C\C=C(/C)C(=O)NC2=CC(=O)C(NCCN(C)C)=C(C[C@@H](C)C[C@H](OC)[C@H](O)[C@@H](C)/C=C(\C)[C@@H]1OC(N)=O)C2=O | H2030 (EGFR wild type) | cell viability, Alamar Blue | 120 h | < 0.01 µM |
| Nc1ncnc2c1ncn2[C@H]1CC[C@@H](CO)O1 | human T-lymphocyte | cell growth or viability | 72 h | > 250 µM |
| COc1ccc(NC(=O)Cn2cnc3ccccc3c2=O)c([N+](=O)[O-])c1 | HepG2.2.15 | cell growth or viability, crystal violet | 48 h | > 100 µM |
| CC[C@H](C)[C@H](NC(=O)[C@H](CCC(=O)O)NC(=O)[C@H](CO)NC(=O)[C@H](CC(C)C)NC(=O)[C@H](CC(C)C)NC(=O)[C@H](CC(C)C)NC(=O)[C@H](CC(C)C)NC(=O)[C@@H](NC(=O)[C@@H](NC(=O)[C@H](CC(=O)O)NC(=O)[C@@H](N)CC(=O)O)[C@@H](C)O)[C@@H](C)O)C(=O)NCC(=O)N[C@@H](C)C(=O)NCC(=O)N[C@@H](CCSC)C(=O)N[C@@H](Cc1c[nH]c2ccccc12)C(=O)N[C@H](C(=O)N[C@@H](CO)C(=O)N[C@@H](CC(C)C)C(=O)N[C@H](C(=O)N[C@@H](CCC(=O)O)C(=O)N[C@@H](CC(C)C)C(=O)N[C@H](C(=O)N[C@@H](C)C(=O)N[C@@H](CC(=O)O)C(=O)N[C@@H](C)C(=O)N[C@@H](CC(=O)O)C(=O)N[C@@H](CCC(=O)O)C(=O)NCC(=O)O)[C@@H](C)CC)C(C)C)C(C)C | HSC-3 expressing PTPRJ | cell viability, MTT | 10 min then 72 h recovery, pH 5.5 | 0.54 µM |
| CO[C@H]1[C@H](O[C@H]2CC[C@]3(C=O)[C@H]4CC[C@]5(C)[C@@H](C6=CC(=O)OC6)CC[C@]5(O)[C@@H]4CC[C@]3(O)C2)O[C@H](C)[C@H](O)[C@@H]1OC | mouse oviductal epithelial, scrambled | cell viability | 72 h | > 50 µM |
| O=C1[O][Pt]2([NH][C@@H]3CCCC[C@H]3[NH]2)[O]C1=O | H22 | CCK-8 | 24 h | 21.5 ± 0.88 µM |
| FFPKVAGVAAKVLKKFCTISKKC (disulfide 17-23 (inferred)) (disulfide) | H838 | cell viability, MTT |  | 4.54 µM |
| COc1ccc(NC(=O)Cn2cnc3ccccc3c2=O)c(N)c1 | HepG2.2.15 | cell growth or viability, crystal violet | 48 h | > 100 µM |
| C#CC[C@H](NC(=O)[C@H](CO)NC(=O)CNC(=O)[C@H](CCCNC(=N)N)NC(=O)[C@@H](NC(=O)[C@H](CC(C)C)NC(=O)[C@@H]1CCCN1C(=O)[C@H](C)NC(=O)CNC(=O)[C@@H](NC(=O)[C@H](CO)NC(=O)[C@H](CCCNC(=N)N)NC(=O)CNC(=O)[C@H](CO)NC(=O)[C@H](CCCNC(=N)N)NC(=O)[C@H](CC(C)C)NC(=O)[C@H](CCCNC(=N)N)NC(=O)[C@H](CCCN)NC(=O)CNC(=O)[C@@H]1CCCN1C(=O)[C@@H]1CCCN1C(=O)[C@H](C)N)[C@@H](C)O)[C@@H](C)O)C(N)=O | HEK293 | cell growth or viability, MTT |  | > 200 µM |
| CC(C)[C@]12O[C@H]1[C@@H]1O[C@]13[C@]1(O[C@H]1C[C@H]1C4=C(CC[C@@]13C)C(=O)OC4)[C@@H]2O | HEK-293T | cell growth or viability, thymidine uptake | 24 h | 0.0056 µM |
| Cc1ccc(C(C)C)cc1.[Cl][Ru]([Cl])[PH]12CN3CN(CN(C3)C1)C2 | HCC1806 | cell viability, PrestoBlue |  | 750 µM |
| C/C=C(/C)C(=O)O[C@H]1C(C)=C2[C@H]([C@@H]1OC(=O)CCCCC)[C@@](C)(OC(C)=O)C[C@H](OC(=O)CCC)[C@@]1(O)[C@H]2OC(=O)[C@@]1(C)O | LAPC4 | AR transcriptional activity, antagonist, PSA promoter luciferase | 24 h | 2.78 µM |
| N.N.[Cl][Pt][Cl] | HT-29 | cell viability, MTS | 48 h | 80.6 ± 1.6 µM |
| lead | U-251 overexpressing EphA2 | cell viability, MTT | 48 h | 2.1 ± 1.05 µM |
| O=C(Cn1cnc2ccccc2c1=O)Nc1ccc(O)cc1[N+](=O)[O-] | HepG2.2.15 | cell growth or viability, crystal violet | 48 h | > 100 µM |

| Substance | cell line | assay | setting | IC50 |
| --- | --- | --- | --- | --- |
| N.N.[Cl][Pt][Cl] | human iPSC-derived sensory neurons | cell viability, resazurin reduction | 48 h | 3.1 µM |
| Nc1nc2[nH]c(CCCc3csc(C(=O)N[C@@H](CCC(=O)O)C(=O)O)c3)cc2c(=O)[nH]1 | IGROV-1 knockdown cells | cell growth |  | 0.019 to 0.138 µM |
| C#CC[C@H](N)C(=O)NCC(=O)NCC(=O)N[C@@H](Cc1ccc(O)cc1)C(=O)N[C@@H](CC(N)=O)C(=O)N[C@@H](CC(C)C)C(=O)N[C@@H](CCCNC(=N)N)C(=O)N1CCC[C@H]1C(=O)N[C@@H](CCCNC(=N)N)C(=O)N[C@H](C(=O)N[C@@H](Cc1ccc(O)cc1)C(=O)N[C@@H](CCC(N)=O)C(=O)N1CCC[C@H]1C(=O)N[C@@H](CCC(N)=O)C(=O)N[C@@H](CCCNC(=N)N)C(=O)N[C@@H](Cc1ccc(O)cc1)C(=O)NCC(=O)NCC(N)=O)[C@@H](C)O | A2780 | cell growth or viability, MTT |  | > 200 µM |
| O=c1[nH]c(=O)n([C@H]2C[C@H](O)[C@@H](CO)O2)cc1C(F)(F)F | 293FT | cell viability |  | > 15 µM |
| CC[C@H](C)[C@H](NC(=O)[C@H]([C@@H](C)CC)N(C)C(C)=O)C(=O)N[C@H](C(=O)N[C@@H](CC(C)C)C(=O)[C@@]1(C)CO1)[C@@H](C)O | LAPC4 | AR transcriptional activity, antagonist, PSA promoter luciferase | 24 h | 10 µM |
| N.N.[Cl][Pt][Cl] | CCD-18Co | cell growth or viability, MTT | 72 h | 31.3 µM |
| Cc1ccc(NC(=O)Cn2cnc3ccccc3c2=O)c(O)c1 | HepG2.2.15 | cell growth or viability, crystal violet | 48 h | > 100 µM |
| Pertussis toxin | LAD2 mast cells | β-hexosaminidase release | 2 h pretreatment, with: substance P, 30 min | 0.0001 µM |
| O=c1[nH]c(=O)n([C@H]2C[C@H](O)[C@@H](CO)O2)cc1F | 293FT | cell viability |  | > 15 µM |
| N.N.[Cl][Pt][Cl] | HL-7702 normal liver | cytotoxicity, MTT | 48 h | 15.7 ± 0.32 µM |
| CC/C(=C(\c1ccccc1)c1ccc(OCCNC)cc1)c1ccccc1 | cultured mouse DRG neurons | sodium current, whole-cell voltage clamp | 5 min, -10 mV trains at 0.2 Hz | 1.7 µM |
| COc1cccc2c1C(=O)c1c(O)c3c(c(O)c1C2=O)C[C@@](O)(C(=O)CO)C[C@@H]3O[C@H]1C[C@H](N)[C@H](O)[C@H](C)O1 | SHG-44 | cell growth or viability, SRB | 72 h | 1.9 µM |
| [Cl][Cd][Cl] | Caco-2 monolayers | transepithelial resistance | 48 h, repeated dosing | 30 µM |
| CCC[C@@H](C)[C@H](O)[C@H](C)[C@@H](O)[C@@H](C)[C@H](Cc1nc(C2=N[C@@](C)(C3=N[C@@](C)(C(=O)N[C@H]([C@@H](O)[C@@H](C)C(=O)OCC)[C@@H](C)CC)CS3)CS2)cs1)OC | mouse neocortical neurons | spontaneous Ca2+ oscillations, inhibitor, fluo-3 calcium imaging | 12-13 DIV | inactive |
| CC(=O)NCCCCCC(=O)N[C@@H](CCCNC(=N)N)C(=O)N[C@@H](Cc1c[nH]c2ccccc12)C(=O)N[C@@H](CCC(N)=O)C(=O)N[C@@H](Cc1c[nH]c2ccccc12)C(=O)N[C@@H](CCCNC(=N)N)C(=O)N[C@@H](Cc1c[nH]c2ccccc12)C(=O)N[C@@H](CCC(N)=O)C(=O)N[C@@H](Cc1c[nH]c2ccccc12)C(=O)N[C@@H](CCCNC(=N)N)C(N)=O | HT-29 | cell growth or viability, MTT |  | > 122 µM |
| CC1(C)OC2=C(C(=O)c3ccccc3C2=O)C1n1cc(C[Se]c2ccccc2)nn1 (centres unmarked) | six human cancer cell lines | MTT | 72 h, range over cell lines | 1.59 to 2.95 µM |

Some of these lines once more:
| Substance | cell line | assay | setting | IC50 |
| --- | --- | --- | --- | --- |
| N.N.[Cl][Pt][Cl] | HL-7702 normal liver | cytotoxicity, MTT | 48 h | 15.7 ± 0.32 µM |
| COc1ccc(NC(=O)Cn2cnc3ccccc3c2=O)c([N+](=O)[O-])c1 | HepG2.2.15 | cell growth or viability, crystal violet | 48 h | > 100 µM |
| N.N.[Cl][Pt][Cl] | HT-29 | cell viability, MTS | 48 h | 80.6 ± 1.6 µM |
| C#CC[C@H](NC(=O)[C@H](CO)NC(=O)CNC(=O)[C@H](CCCNC(=N)N)NC(=O)[C@@H](NC(=O)[C@H](CC(C)C)NC(=O)[C@@H]1CCCN1C(=O)[C@H](C)NC(=O)CNC(=O)[C@@H](NC(=O)[C@H](CO)NC(=O)[C@H](CCCNC(=N)N)NC(=O)CNC(=O)[C@H](CO)NC(=O)[C@H](CCCNC(=N)N)NC(=O)[C@H](CC(C)C)NC(=O)[C@H](CCCNC(=N)N)NC(=O)[C@H](CCCN)NC(=O)CNC(=O)[C@@H]1CCCN1C(=O)[C@@H]1CCCN1C(=O)[C@H](C)N)[C@@H](C)O)[C@@H](C)O)C(N)=O | HEK293 | cell growth or viability, MTT |  | > 200 µM |
